Results pooled from the literature.
Every numbered part comes from another study and shows a few of its results, in no order. Substitutions count along the parent as printed.

Series 1
Target: ABI1, truncated, D143A, DHFR fusion (Arabidopsis thaliana)
Technique: DHFR PCA, deep sequencing
Sample: yeast
Notes: methotrexate growth selection, single substitutions
With: (+)-ABA 0 µM
Reference: wild-type fitted maximum
Direction: higher = stronger binding
Starting sequence: PYL1, truncated, DHFR fusion (Arabidopsis thaliana); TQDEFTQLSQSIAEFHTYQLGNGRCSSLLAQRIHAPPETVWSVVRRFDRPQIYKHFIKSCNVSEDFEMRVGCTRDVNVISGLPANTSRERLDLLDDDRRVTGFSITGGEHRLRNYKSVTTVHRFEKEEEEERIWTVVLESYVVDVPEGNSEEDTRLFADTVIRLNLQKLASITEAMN
Change	relative binding score
H110A	35.6%
Q7A	31.6%
D95F	-14.6%
N114W	-1.52%
V121L	5.2%
D95H	-1.98%
I57E	6.38%
S27N	39.7%
S63M	2.53%
D96L	-11.7%
D65L	1.17%
F5E	6.46%
L8N	-4.06%
T6G	23.6%

Series 2
Target: CCND2, cyclin fold, Cln2 fusion (human)
Technique: yeast growth competition, sequencing
Sample: yeast
Notes: weak parent motif
Reference: not given
Direction: higher = stronger binding
Starting sequence: GMNC docking peptide (human); KNAKRNLSSEFAN; partner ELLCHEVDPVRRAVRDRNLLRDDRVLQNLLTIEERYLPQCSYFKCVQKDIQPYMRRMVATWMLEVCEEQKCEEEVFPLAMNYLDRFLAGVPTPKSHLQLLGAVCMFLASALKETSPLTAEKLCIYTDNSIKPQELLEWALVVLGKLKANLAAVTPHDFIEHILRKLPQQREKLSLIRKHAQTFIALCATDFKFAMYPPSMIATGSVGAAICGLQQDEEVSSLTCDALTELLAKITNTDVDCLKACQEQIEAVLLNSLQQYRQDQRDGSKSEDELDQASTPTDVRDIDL
Change	normalised enrichment score
R5S	-0.0589
K4E	-0.107
R5N	0.161
A3L	-0.0738
S9P	0.262
E10C	-0.13
L7Y	-0.275
K4T	0.142
S9Y	0.312
N6T	0.657
A12C	0.0937
N6P	0.0758
K4A	0.18
E10H	-0.131
S8N	0.311
N6W	-0.315
N6C	-0.102
N6G	0.114
N6F	-0.142
S8K	0.0659
F11Y	0.182
N2I	0.602
A3H	0.53
R5A	0.159
S9A	0.725

Series 3
Target: Sal-like protein 4, full length isoform A (SALL4, Homo sapiens, UniProt Q9UJQ4, residues 1-1053)
UniProt Q9UJQ4, sequence (whole entry, looked up): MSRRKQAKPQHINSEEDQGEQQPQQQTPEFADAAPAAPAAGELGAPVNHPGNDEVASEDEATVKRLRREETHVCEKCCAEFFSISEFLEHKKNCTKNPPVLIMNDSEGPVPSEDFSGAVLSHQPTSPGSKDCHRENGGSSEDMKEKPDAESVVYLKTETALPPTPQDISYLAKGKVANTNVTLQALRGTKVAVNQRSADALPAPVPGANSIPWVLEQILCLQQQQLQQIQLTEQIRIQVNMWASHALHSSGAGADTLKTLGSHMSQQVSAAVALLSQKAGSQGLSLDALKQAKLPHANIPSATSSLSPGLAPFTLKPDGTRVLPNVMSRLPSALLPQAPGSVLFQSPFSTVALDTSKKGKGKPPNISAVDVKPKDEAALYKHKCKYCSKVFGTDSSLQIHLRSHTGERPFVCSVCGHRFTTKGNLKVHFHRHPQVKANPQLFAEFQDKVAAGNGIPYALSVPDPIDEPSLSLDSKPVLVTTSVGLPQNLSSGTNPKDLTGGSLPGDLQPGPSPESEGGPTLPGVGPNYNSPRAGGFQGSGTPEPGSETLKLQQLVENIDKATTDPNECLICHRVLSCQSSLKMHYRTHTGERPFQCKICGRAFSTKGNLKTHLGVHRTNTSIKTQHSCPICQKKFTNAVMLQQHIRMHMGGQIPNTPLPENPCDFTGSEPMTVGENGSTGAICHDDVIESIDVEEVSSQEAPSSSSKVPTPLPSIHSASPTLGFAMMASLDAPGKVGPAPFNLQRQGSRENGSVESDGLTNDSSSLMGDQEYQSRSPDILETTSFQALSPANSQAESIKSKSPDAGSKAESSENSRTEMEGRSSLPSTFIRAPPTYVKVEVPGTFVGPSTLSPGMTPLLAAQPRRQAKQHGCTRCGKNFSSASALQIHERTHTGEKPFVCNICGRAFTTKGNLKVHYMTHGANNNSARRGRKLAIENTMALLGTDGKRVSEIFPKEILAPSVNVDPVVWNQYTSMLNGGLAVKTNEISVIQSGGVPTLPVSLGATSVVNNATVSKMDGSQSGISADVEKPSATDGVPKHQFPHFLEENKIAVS
Technique: universal PBM
Molecule type: double-stranded DNA, one strand shown
Sample: in vitro
Tested at: 600 nM
Notes: 8-mer, flanks averaged, mean of replicates
Direction: higher = stronger binding
Oligonucleotide	E-score
CTACGTAG	-0.0213
CTCATTCC	0.0668
TCTCGAGA	-0.0518
CCGCGCTA	-0.0876
GCCACTAA	-0.0691
ACCCAGGA	-0.206
CCTACCGA	-0.036
GATAGTAC	-0.023
CCAGGCAA	-0.094
CAAGTTCG	-0.185
ACTGCCAT	0.0718
CACCTCGG	-0.148
CCGCTAAG	-0.157
ACCATTCG	0.0311
CAGTGGGA	-0.283
CGACCAGC	-0.233
CTATCGAC	-0.204
AAAACGGC	0.0328
GTCACGAA	0.0267
CTCTGAAG	-0.117
CAATACGC	0.0245
GCTACTCA	-0.0736

Series 4
Target: RING finger protein unkempt homolog, zinc fingers 1-6, GST-SBP tag (UNK, Homo sapiens, UniProt Q9C0B0, residues 30-357)
UniProt Q9C0B0, sequence (30-357, looked up): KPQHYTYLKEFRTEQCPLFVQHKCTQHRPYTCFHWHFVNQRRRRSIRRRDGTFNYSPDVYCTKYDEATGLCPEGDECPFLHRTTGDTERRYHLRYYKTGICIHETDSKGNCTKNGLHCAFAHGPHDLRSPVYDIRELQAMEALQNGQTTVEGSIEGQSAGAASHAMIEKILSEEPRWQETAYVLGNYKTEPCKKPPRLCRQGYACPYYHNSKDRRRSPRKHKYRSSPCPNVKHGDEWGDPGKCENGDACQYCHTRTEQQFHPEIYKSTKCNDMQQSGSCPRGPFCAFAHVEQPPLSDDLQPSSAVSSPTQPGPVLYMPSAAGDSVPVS
Technique: RNA Bind-n-Seq
Molecule type: RNA
Sample: in vitro
Tested at: not given
Notes: RNA with constant flanks, human and mouse sites, ends assumed
Reference: input RNA pool
Direction: higher = stronger binding
Oligonucleotide	bound/input enrichment [ratio]
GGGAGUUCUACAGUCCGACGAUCAAGAUUUGGAGAGGAUGUGCUUGAAGUAAUCAAGGACUCUAAUCCUGUAGACAAGUGCAAAUUAGAUCCAAACAAGGCAUAUAUUCAGAUUACCUACGUGGAGCCCUUCUUUGACACCUACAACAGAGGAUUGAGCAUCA	0.332
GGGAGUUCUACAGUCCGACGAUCUCCUCUAAAGCAACUCCUGCAGAGAUGGAUUUGGCCCACAACAGCCAAAGCAUGCACGCCUCUUCAGCUUCCAAAUCUGUGCUGGAGGUGACUCAGAAAGCAACCCCAAAUCCAAGUCUUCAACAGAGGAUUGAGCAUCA	0.21
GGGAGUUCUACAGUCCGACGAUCCACCGCAACCUUUCCUUUUUCCCCCAGUGAUUCUGAAAAACCCCUCUUCCCUUCAGCUUGCUUAGAUGUUCCAAAUUUAGUAAGCUUAAGGCGGCCUACAGAAGAAAAAGAAAAAAAAGGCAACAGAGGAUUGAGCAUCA	0.435
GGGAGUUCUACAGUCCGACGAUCAUCGUACAUCGAGACCUCAAGGCUGAAAAUCUAUUGUUAGAUGCCGAUAUGAACAUUAAAAUAGCAGAUUUCGGUUUUAGCAAUGAAUUUACUGUUGGCGGUAAACUCGACACGUUUUGUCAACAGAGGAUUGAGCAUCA	0.448
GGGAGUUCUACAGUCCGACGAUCCCAAGAAGGGCCUCCAACAGGCAAAUUCAGGGAGAGGAUGGUUUCAGGGAAUAUCAGUUUAUUAGUGGGUCAUGAAUUAUAGACUUAACAGUAAUGGUUUGUGGUAGGAAGAUCACAACUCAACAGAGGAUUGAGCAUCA	0.949
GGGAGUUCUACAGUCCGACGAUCUUUGUUGCUGCUUCCUAUGAUAUACGAGGAAACUUCAUCAAAUGGCAACCUUUAGAAGGUGGUGUUUUACAGCUUUGUCCAGACACUGAGAGAAGGCUGGAUGCAGCGUAUGCUUUUGGACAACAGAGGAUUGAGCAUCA	0.217
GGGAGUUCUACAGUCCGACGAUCCAACAAUUAGAAGCACCUUAUAACAGUGAUACUGUGCUUGUCCACCGAGUUCACAGUUAUUUAGAGCGUCAUGGUCUUAUCAACUUCGGCAUCUAUAAGAGGAUAAAACCCCUACCAACUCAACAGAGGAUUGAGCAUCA	0.269
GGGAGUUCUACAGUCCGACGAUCAUGAAUCCUGGGGGCCAGUUCCAUCCUACUCCACCACCUCUUCAGCACUAUACACUAGAAGACAUUGCAACUUCUCACCUGUAUCGGGAACCAAACAAGAUGCUAGAACACCGAGAAGUUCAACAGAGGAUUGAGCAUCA	0.34
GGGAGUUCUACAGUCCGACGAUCUACACUGAUGUCUAUCCAGAAAUCAUUGAGCGCGCAUGCUUUGUCCUGGAGAAGAAAUUUGGAAUCCAGCUGAAGGAAAUCGACAAAGAAGAGCAUCUGUAUAUUCUCAUCAGUACCCCUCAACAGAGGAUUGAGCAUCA	0.138
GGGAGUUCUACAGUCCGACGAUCGACAGGGUCGGGGACAUCCACAUCUUGGAAGUCACGAAUAAUCUAGAACAUAAGACCUCUUUUAGUAUUUCCAAUUUUCUCAACAAGAGCAGGGGGAGUAAUUUCAGUGCAAGUCAGAGCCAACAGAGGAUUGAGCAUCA	8.39
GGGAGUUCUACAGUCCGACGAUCCUGAAGCAGCCCCGAGAAUGCCGGACCACAGAGUCUGGGGUGCCAGAGGAUGGACAGUUGGAUGCCCAGGUGAGGGCUGCCGUGGAGAUGUACUCAGAGGACUGGGUCAUUGUACGCAGACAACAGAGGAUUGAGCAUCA	0.165

Series 5
Target: ATF7, bZIP domain (human)
Technique: DHFR protein complementation
Sample: yeast
Notes: single substitutions, most at no-binding floor
Reference: wild-type JUN-FOS pair
Direction: higher = stronger binding
Starting sequence: JUN, bZIP domain (human); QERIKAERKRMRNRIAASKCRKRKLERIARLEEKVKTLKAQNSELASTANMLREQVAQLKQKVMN; partner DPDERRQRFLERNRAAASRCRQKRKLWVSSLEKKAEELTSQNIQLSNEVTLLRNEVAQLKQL
Change	binding fitness
Q55W	-1.37 natural log
N42R	-1.26 natural log
T48Q	-0.695 natural log
E32G	-1.34 natural log
K36E	-0.805 natural log
R30Y	-0.956 natural log
L38C	-1.32 natural log
S47L	-0.93 natural log
A57K	-0.886 natural log
A46G	-1.35 natural log
A57M	-1.04 natural log
A49C	-1.16 natural log
E33C	-1.25 natural log
Q41V	-1.03 natural log
M51A	-0.85 natural log
M51T	-0.857 natural log
N42T	-1.42 natural log
A40S	-1.02 natural log
S43K	-0.772 natural log
E54M	-1.16 natural log
Q55Y	-1.2 natural log
S47K	-0.597 natural log
M51R	-0.886 natural log
I28T	-1.16 natural log
N42W	-1.45 natural log

Series 6
Target: RNA binding protein fox-1 homolog 2, RRM domain, GST-SBP tag (RBFOX2, Homo sapiens, UniProt O43251-10, residues 100-194)
Technique: RNA Bind-n-Seq
Molecule type: RNA
Sample: in vitro
Tested at: 365 nM
Notes: natural RNA segment, single round, ends assumed
Reference: no-protein control
Direction: higher = stronger binding
Target sequence (chain): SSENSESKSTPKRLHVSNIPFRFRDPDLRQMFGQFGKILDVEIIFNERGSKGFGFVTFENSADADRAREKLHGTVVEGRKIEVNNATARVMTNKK
Oligonucleotide	RBNS enrichment (R)
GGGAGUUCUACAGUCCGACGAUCGAGUAGUGAAUCUCUCAGCCAAGGAGGGAAAGAAAAGGAAGAACUCUUGACUAUUUAGAUUCUAGUUAAAUAUCUGGAAUCCUAGCAGUCACUACAUUAUCUCAGCAGAGUGGAAUUCUCGGGUGCCAA	0.442
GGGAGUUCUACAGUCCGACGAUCCACUGCUUUUUUUCCUGAUGUGGGGUGAGGGUCUAUUCUGUUUCCCAUUCCUGCUGCAUCCUGCCUGUGCCCCACAGCAAGCUUUCCACCCCCCAGGGAGGACCCAGCCCUGGAAUUCUCGGGUGCCAA	9.85
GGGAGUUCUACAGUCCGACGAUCGUCAAGGAUUUGUUGGUAAAUGGAACAUUUUAGCAUAGUCAUGAUUUUUGGUUGCCUAGACAUCAGGUAAACAUUCAGUACACUAAAGAAACUAUCCUGGACACUCCCUCUGGAAUUCUCGGGUGCCAA	0.287
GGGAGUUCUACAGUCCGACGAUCGCUGUGGGGAGUCCCAGUGGUGGAGGGGACACAGCGGGCCCGUUCCCAAGUCCGUGAUUUCAGUUUUUCUUUUAUGGUUUCAUUGUUUGUAGUUGCCUUUGGGUUUUUGUUGGAAUUCUCGGGUGCCAA	3.02
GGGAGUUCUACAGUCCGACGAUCGAACAGGAAGUUUGCUCUAAGAUGAGACUGUUGUUGUCUGGACUUCCUCUAGAAAUCCCAGCAGAAUCUGUUGCCUCCCCCAACCCCUAACUUUGCCACUUCAAGCCUCAUGGAAUUCUCGGGUGCCAA	1.65
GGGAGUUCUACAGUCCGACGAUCUAUUAUUGAUGAAUUUUCAUAAGGUGGAAUUGAUCUUAAUCUACUAACAGAGAAGGGUAGACAGUUUGUGUUAAAUGUUGGCAUUUACUUGUAUUGACCAAAGUUUUGCAUGGAAUUCUCGGGUGCCAA	2.07
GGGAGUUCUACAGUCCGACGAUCUUCUCCAUAAUUUGGUCUCCUCUUGGGUUUGGGGAUAGUUCUAAUUUGGAGAGCUGUUUUAUCUCCAAUGGCUGUGACUCAGUGCAAGGAUUCCACUCAGAACCUCUUUCUGGAAUUCUCGGGUGCCAA	0.548
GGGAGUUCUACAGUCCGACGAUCAGUUUCAAUAAAGUUUGAUCUUCCUCUGCUAAAUUGAUGUUGAUGCAAUCCUUACAAAUGAUUGCUUUUAAAAUUUUAAGCUAGGAAAAGAAAUCUAUAGAAAGUGUUCUUGGAAUUCUCGGGUGCCAA	0.481
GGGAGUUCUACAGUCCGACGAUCUAAAAUGGAACUAAAGAUAGAAGGAGGACUGUAGGAAGAAAUGGAAUAAUUUAAAUGUGAGGAAAGAUAUCUGUGGUAGACAUGUCCUUCCAUGACUAAUUUCUAAUUGUUGGAAUUCUCGGGUGCCAA	1.09
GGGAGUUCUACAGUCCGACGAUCGUGGCAACCCCAGACCCAACCCAUGCCCCUGACAGAUCUAGUUCUCUUCUCCUGUGUUCCCUUUGAGUCCAGUGUGGGACACGGUUUAACUGUCCCAGCGACAUUUCUCCUGGAAUUCUCGGGUGCCAA	0.657
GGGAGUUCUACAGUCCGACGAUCUGCAUAAUUAGUUAGAAAGGAUGUAUACCAUGCUGAAACCAUUCUGUUGCUAUUUAGGACCAAAACAUUUUCAGACAGUAGGUAGGCUUUUACAUUCCCUUGCUCCGUUAUGGAAUUCUCGGGUGCCAA	0.374
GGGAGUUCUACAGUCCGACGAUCUUUAAAGGAAUAAAGCAAACCAGUGCUAAGAAUUUUUUUUUUAAAGCUAGCUACAUUGCAGCAGAGUUGUUGUGUAUGUGUGCAUUUAAAGAAGAUAAUGCUUAUUCUGUUGGAAUUCUCGGGUGCCAA	0.517
